Measured values of several laboratories.
± gives the spread as reported.

SMILES	system	setting	Tmax
Cn1cnc2c(F)c(Nc3ccc(Br)cc3Cl)c(C(=O)NOCCO)cc21	nude mice with A-375 tumours, plasma	oral, 10 mg/kg once daily, 7 days, steady state	1 h
OC[C@H]1O[C@@H](OCCc2ccc(O)cc2)[C@H](O)[C@@H](O)[C@@H]1O	Balb/c tumour-bearing mice, plasma	oral, 109.2 mg/kg SNZ	0.3 h
O=C(c1ccc(OCCN2CCCCC2)cc1)c1c(-c2ccc(O)cc2)sc2cc(O)ccc12	C57BL/6 mice male, plasma	oral, 20 mg/kg, median	2 h
OCCc1ccc(O)cc1	Balb/c tumour-bearing mice, plasma	oral, 109.2 mg/kg SNZ	0.533 h
Nc1cc(-c2ccccc2)ccc1Cn1cncc1CNc1ccc(-c2nc3ccccc3s2)c(-c2ccccc2)c1	female BALB/c mice, plasma	oral, 50 mg/kg single dose	1 h
CO[C@H]1C[C@@H]2CC[C@@H](C)[C@@](O)(O2)C(=O)C(=O)N2CCCC[C@H]2C(=O)O[C@H]([C@H](C)C[C@@H]2CC[C@@H](O)[C@H](OC)C2)CC(=O)[C@H](C)/C=C(\C)[C@@H](O)[C@@H](OC)C(=O)[C@H](C)C[C@H](C)/C=C/C=C/C=C/1C	NOD/SCID mice, male, blood or plasma	intraperitoneal, 0.5 mg/kg every 48 h	1 h
Nc1cc(-c2ccccc2)ccc1Cn1cncc1CNc1ccc(Cl)c(-c2ccccc2)c1	female BALB/c mice, plasma	oral, 50 mg/kg single dose	0.5 h
OCCc1ccc(O)c(O)c1	obese male C57BL/6J mice, plasma	oral, 200 mg/kg	0.417 ± 0.0833 h
CN1CCN(c2ccc3nc(-c4c(N)c5c(F)cccc5[nH]c4=O)[nH]c3c2)CC1	NOD/SCID mice, male, blood or plasma	oral, 30 mg/kg once daily, day 1	6 h
COc1cc(CCC(C)=O)ccc1O	obese male C57BL/6J mice, plasma	oral, 200 mg/kg	0.833 ± 0.167 h
COc1ccc(NC(=O)N2CCCCN3[C@H](CN(C)C)[C@H](c4ccc(C#Cc5ccccc5)cc4)[C@@H]3C2)cc1	CD-1 mice, plasma	oral, 10 mg/kg	8 h
CCOc1cc(C(C)(C)C)ccc1C1=N[C@@](C)(c2ccc(Cl)cc2)[C@@](C)(c2ccc(Cl)cc2)N1C(=O)N1CCN(CCCS(C)(=O)=O)CC1	athymic nude mice, orthotopic GBM, tumour-bearing brain hemisphere	oral, 100 mg/kg	2 h
CN1CCN(c2ccc(Nc3ncc4cc(C#N)c(=O)n(C5CCCC5)c4n3)cc2)CC1	NIH Swiss nude mice, intracerebral U87 tumour, brain	intravenous, 25 mg/kg, added: gefitinib 200 mg/kg oral 1 h before	0.25 h

A few entries again:
SMILES	system	setting	Tmax
CN1CCN(c2ccc3nc(-c4c(N)c5c(F)cccc5[nH]c4=O)[nH]c3c2)CC1	NOD/SCID mice, male, blood or plasma	oral, 30 mg/kg once daily, day 1	6 h
O=C(c1ccc(OCCN2CCCCC2)cc1)c1c(-c2ccc(O)cc2)sc2cc(O)ccc12	C57BL/6 mice male, plasma	oral, 20 mg/kg, median	2 h
